Assay results from different studies.
Compare with care: the assays were run in different laboratories. Numbers after ± are the reported error.

CSCC[C@H](NC(=O)CNC(=O)[C@H](CCCCN)NC(=O)[C@H](CC(C)C)NC(=O)[C@@H]1CCCN1C(=O)[C@H](CO)NC(=O)[C@H](Cc1c[nH]cn1)NC(=O)[C@H](Cc1c[nH]c2ccccc12)NC(=O)[C@H](CCCNC(=N)N)NC(=O)[C@H](CC(C)C)NC(=O)[C@H](CCCNC(=N)N)NC(=O)[C@H](Cc1c[nH]c2ccccc12)NC(=O)[C@H](CS)NC(=O)CCCCCNC(=O)CN1CCN(CC(=O)O)CCN(CC(=O)O)CCN(CC(=O)O)CC1)C(=O)O [copper-64 labelled] — tissue uptake (ex vivo biodistribution; BALB/c nude mice, ovaries; intravenous, dose not given, 6 h, Huh-7 tumour-bearing): 2.1 %ID/g
CCCC[C@H]1C(=O)N(C)[C@@H](CCCC)C(=O)N[C@@H](CCCNC(=O)CN2CCN(CC(=O)O)CCN(CC(=O)O)CCN(CC(=O)O)CC2)C(=O)N[C@H](C(=O)NCC(N)=O)CSCC(=O)N[C@@H](Cc2ccc(O)cc2)C(=O)N(C)[C@@H](C)C(=O)N[C@@H](CC(N)=O)C(=O)N2CCC[C@H]2C(=O)N[C@@H](Cc2c[nH]cn2)C(=O)N[C@@H](CC(C)C)C(=O)N(C)CC(=O)N[C@@H](Cc2c[nH]c3ccccc23)C(=O)N[C@@H](CO)C(=O)N[C@@H](Cc2c[nH]c3ccccc23)C(=O)N1C [gallium-68 labelled] — tissue uptake (NOD/SCID mice with CHO-hPD-L1 xenograft, liver; 120 min post injection): 8.22 ± 4.37 %ID/g
CN1Cc2cc(Cl)ccc2-n2c(nnc2C2CCN(c3cccc([18F])n3)CC2)C1 — tissue uptake (C57BL/6 mouse male, spleen; intravenous, 3.7 MBq, 60 min): 2.89 ± 0.27 %ID/g
CC[C@H](C)[C@H](NC(=O)[C@H](CCCCN)NC(=O)CNC(=O)[C@H](CC(C)C)NC(=O)[C@H](Cc1ccccc1)NC(=O)[C@H](CCCCN)NC(=O)[C@H](CO)NC(=O)[C@H](Cc1ccccc1)NC(=O)[C@H](Cc1c[nH]c2ccccc12)NC(=O)[C@H](CCC(N)=O)NC(=O)[C@@H](NC(=O)[C@H](Cc1ccccc1)NC(=O)CCCCCNC(=O)CN1CCN(CC(=O)O)CCN(CC(=O)O)CCN(CC(=O)O)CC1)C(C)C)C(=O)N[C@@H](CCC(=O)O)C(=O)N1CCC[C@H]1C(=O)N[C@@H](CC(=O)O)C(=O)N[C@H](C(=O)N[C@@H](CO)C(=O)N[C@@H](CCC(N)=O)C(=O)N[C@H](C(=O)N[C@@H](CCC(N)=O)C(=O)N[C@@H](CC(=O)O)C(=O)N1CCC[C@H]1C(=O)N[C@@H](CC(N)=O)C(=O)N[C@@H](CC(=O)O)C(=O)N[C@@H](CCC(N)=O)C(=O)N[C@@H](Cc1ccc(O)cc1)C(=O)N[C@@H](CCC(=O)O)C(=O)N1CCC[C@H]1C(=O)N[C@@H](Cc1ccccc1)C(=O)O)C(C)C)C(C)C [copper-64 labelled] — tissue uptake (BALB/c mice, male, CT26 tumour-bearing, lung; 2 h, anti-PD1 plus anti-CTLA4 treated): 3.76 ± 2.2 %ID/g
CC[C@H](C)[C@H](NC(=O)[C@H](CCCNC(=N)N)NC(=O)[C@H](CCCCN)NC(=O)[C@H](Cc1ccc(O)cc1)NC(=O)[C@H](CC(=O)O)NC(=O)[C@H](C)NC(=O)CNC(=O)CCOCCOCCOCCNC(=O)CN1CCN(CC(=O)O)CCN(CC(=O)O)CCN(CC(=O)O)CC1)C(=O)N[C@H](C(=O)N[C@H](C(=O)N[C@@H](CCCCN)C(=O)N[C@H](C(=O)N[C@@H](CC(N)=O)C(N)=O)C(C)C)C(C)C)[C@@H](C)O [copper-64 labelled] — tissue uptake (ex vivo gamma counting; C57BL/6J male mice, B16-F10 tumour, blood; intravenous, 1.85 MBq, 100 min): 0.47 ± 0.054 %ID/g
CC(C)C[C@@H](NC(=O)[C@@H](CCCNC(=N)N)NC(=O)[C@@H](Cc1c[nH]cn1)NC(=O)[C@@H](Cc1c[nH]c2ccccc12)NC(=O)[C@@H](Cc1c[nH]cn1)NC(=O)[C@@H](Cc1ccccc1)NC(=O)[C@H](NC(=O)[C@@H](Cc1ccc(O)cc1)NC(=O)CNC(=O)CNC(=O)CCOCCOCCOCCNC(=O)CN1CCN(CC(=O)O)CCN(CC(=O)O)CC1)[C@H](C)O)C(=O)N[C@H](CC(N)=O)C(=O)N1CCC[C@@H]1C(=O)O [gallium-68 labelled] — tissue uptake (gamma counting; C57BL/6 mice, male, lung; intravenous, 1.85 MBq, 30 min): 1.14 ± 0.14 %ID/g
CC[C@H](C)[C@H](NC(=O)[C@H](CCCNC(=N)N)NC(=O)[C@H](CCCCN)NC(=O)[C@H](Cc1ccc(O)cc1)NC(=O)[C@H](CC(=O)O)NC(=O)[C@H](C)NC(=O)CNC(=O)CCOCCOCCOCCNC(=O)CN1CCN(CC(=O)O)CCN(CC(=O)O)CCN(CC(=O)O)CC1)C(=O)N[C@H](C(=O)N[C@@H](CC(C)C)C(=O)N[C@@H](CCCCN)C(=O)N[C@H](C(=O)N[C@@H](CC(N)=O)C(N)=O)C(C)C)[C@@H](C)O [copper-64 labelled] — tissue uptake (ex vivo gamma counting; C57BL/6J male mice, B16-F10 tumour, stomach; intravenous, 1.85 MBq, 40 min): 1.06 ± 0.255 %ID/g
C[C@H](O)[C@@H](NC(=O)[C@H]1CCCN1C(=O)[C@@H](CCCCN)NC(=O)[C@@H](CO)NC(=O)[C@@H](Cc1ccc(O)cc1)NC(=O)[C@@H](CC(N)=O)NC(=O)CCOCCOCCOCCNC(=O)CN1CCN(CC(=O)O)CCN(CC(=O)O)CCN(CC(=O)O)CC1)C(=O)N[C@H](CC(=O)O)C(=O)N[C@H](CCCNC(=N)N)C(=O)N[C@H](CCC(N)=O)C(=O)N[C@H](Cc1ccc(O)cc1)C(=O)N[C@H](Cc1c[nH]cn1)C(=O)N[C@H](Cc1ccccc1)C(N)=O [copper-64 labelled] — tissue uptake (C57BL/6J mice, spleen; intravenous, 1.85 MBq, 0.3333 h, radiolabelled): 0.63 ± 0.16 %ID/g

A few entries again:
CSCC[C@H](NC(=O)CNC(=O)[C@H](CCCCN)NC(=O)[C@H](CC(C)C)NC(=O)[C@@H]1CCCN1C(=O)[C@H](CO)NC(=O)[C@H](Cc1c[nH]cn1)NC(=O)[C@H](Cc1c[nH]c2ccccc12)NC(=O)[C@H](CCCNC(=N)N)NC(=O)[C@H](CC(C)C)NC(=O)[C@H](CCCNC(=N)N)NC(=O)[C@H](Cc1c[nH]c2ccccc12)NC(=O)[C@H](CS)NC(=O)CCCCCNC(=O)CN1CCN(CC(=O)O)CCN(CC(=O)O)CCN(CC(=O)O)CC1)C(=O)O [copper-64 labelled] — tissue uptake (ex vivo biodistribution; BALB/c nude mice, ovaries; intravenous, dose not given, 6 h, Huh-7 tumour-bearing): 2.1 %ID/g
